Assay results collected from several papers.
Each line is one published result; not all experiments were run side by side.
Effect on: metabolic stability

SMILES	test system	setting	half-life [min]
C#CCCCC(F)/C=C/C(=O)NC1(c2ccc(-c3nc4ccn5c(=O)[nH]nc5c4cc3-c3ccccc3)cc2)CCC1 (stereo not drawn)	CD-1 mouse, liver microsomes	1 µM, pH 7.4	15.4
Cc1c(Cc2cccc(OC(C)(C)C(=O)O)c2)c2ccc(C(=O)N[C@@H](C)c3ccc(F)c(C(C)(C)C)c3)cc2n1CC(C)C	mouse, liver microsomes	–	> 60
C#CCCCC(O)/C=C/C(=O)NC1(c2ccc(-c3nc4ccn5c(=O)[nH]nc5c4cc3-c3ccccc3)cc2)CCC1 (stereo not drawn)	CD-1 mouse, liver microsomes	1 µM, pH 7.4	28.7
N=C(NCC[C@H](NC(=O)c1noc(-c2cc(F)ccc2F)n1)c1nc2ccccc2[nH]1)c1ccc([N+](=O)[O-])o1	mouse, liver microsomes	1 µM	2.2
N#Cc1c(-c2ccco2)cc(-c2cccs2)[nH]c1=O	mouse, liver microsomes	1 µM	9.6
O=c1c2ccccc2[se]n1CCCCCCn1[se]c2ccccc2c1=O	mouse, liver microsomes	5 µM, pH 7.4	37.2
Cc1c(Cc2ccc(Cl)c(O[C@@H](C)C(=O)O)c2)c2ccc(C(=O)N[C@@H](C)c3ccc(C(C)(C)C)cc3)cc2n1CC1CC1	mouse, liver microsomes	–	> 60
Cc1nn(C)c2nnc(-c3ccccc3)c(Cl)c12	mouse, liver microsomes	1 µM	< 5
Cc1c(Cc2ccc(Cl)c(O[C@@H](C)C(=O)O)c2)c2ccc(C(=O)N[C@@H](C)c3ccc(C(C)(C)C)cc3)cc2n1C	mouse, liver microsomes	–	55
C/C(=N\OCCN1CCCC1)c1ccc(C(F)(F)F)cc1	mouse, liver microsomes	–	10
Cc1c(Cc2cc(F)cc(OC(C)(C)C(=O)O)c2)c2ccc(C(=O)N[C@@H](C)c3ccc(C(C)(C)C)cc3)cc2n1CC1CCC1	mouse, liver microsomes	–	> 60
CNC(=O)C1CCCN(C(=O)C2CC3CCC2N3C(=O)[C@@H]2C[C@@H](O)CN2C(=O)NCc2cccc(Cl)c2F)C1 (mixture of isomers)	mouse, liver microsomes	–	134
O=c1c(-c2cnn(-c3ccccc3)c2)c(C(F)(F)F)oc2c(O)c(O)ccc12	mouse, liver microsomes	–	11
C/C(N)=N/C(=N\S(=O)(=O)c1ccc(C(F)(F)F)cc1)N1C[C@H](c2ccccc2)C(c2ccc(Cl)cc2)=N1	mouse, liver microsomes	–	73.5
C=CC(=O)N1CCCC(n2c(=O)c3ncccc3n(Cc3ccc(Oc4ccccc4)cc3)c2=O)C1 (stereo not drawn)	male CD-1 mouse, hepatocytes	1 µM	8.3
Cc1ncsc1-c1ccc([C@@H]2CCCCCCNC(=O)C[C@@H]3N=C(c4ccc(cc4)OCCCCCC(=O)N[C@@H](C(C)(C)C)C(=O)N4C[C@H](O)C[C@H]4C(=O)N2)c2c(sc(C)c2C)-n2c(C)nnc23)cc1	mouse, liver microsomes	1 µM	11.2
CC(C)n1ncc2c(C(=O)NCCN)cc(C3CC3)nc21	mouse, liver microsomes	–	> 145
C[C@@H]1NC(=O)[C@H](CCCCN)NC(=O)[C@H](CCCNC(=N)N)NC(=O)[C@H](Cc2ccccc2)NC(=O)[C@H](CCCCN)NC(=O)CC/C=C/CCC(=O)NCCCC[C@@H](C(N)=O)NC(=O)[C@H](Cc2ccccc2)NC(=O)[C@H](Cc2ccccc2)NC(=O)[C@H](CCCNC(=N)N)NC(=O)[C@H](CCCCN)NC(=O)[C@H](Cc2ccccc2)NC1=O	male CD-1 mouse, liver microsomes	3.1 µM, pH 7.4	> 120
CCc1cccc([C@H](C)NC(=O)c2ccc3c(Cc4cccc(OC(C)(C)C(=O)O)c4)c(C)n(C)c3c2)c1	mouse, liver microsomes	–	54
CC(C)n1ncc2c(C(=O)NC[C@@H](C)N)cc(C3CC3)nc21	mouse, liver microsomes	–	> 145
CC(C)(O)Cn1nc(-c2ccccc2)c2c(Cl)c(-c3ccccc3)nnc21	mouse, liver microsomes	1 µM	5
COc1ccc(CSc2ncccn2)cc1OS(=O)(=O)c1ccc([N+](=O)[O-])cc1	mouse, liver microsomes	–	5
CC(C)c1cc(C(=O)NCCN(C)C)c2cnn(C(C)C)c2n1	mouse, liver microsomes	–	12
Cc1c(Cc2cccc(OC(C)(C)C(=O)O)c2)c2ccc(C(=O)N[C@@H](C)c3cccc(C(C)(C)C)c3)cc2n1CC1CCC1	mouse, liver microsomes	–	> 60
O=C(c1ccc(-c2cc3nccc(-c4ccc5cnccc5c4)c3o2)cc1)N1CCNCC1	mouse, liver microsomes	–	7.7
Nc1nc(SCc2ccc(Cl)cc2)nn1S(=O)(=O)c1ccc2c(c1)CCO2	mouse, liver microsomes	1 µM, pH 7.4	3
Cc1c(Cc2cc(F)cc(OC(C)(C)C(=O)O)c2)c2ccc(C(=O)N[C@@H](C)c3cc(F)cc(C(C)(C)C)c3)cc2n1CC1CCC1	mouse, liver microsomes	–	12
CNCCNC(=O)c1cc(C2CC2)nc2c1cnn2C(C)C	mouse, liver microsomes	–	12.2
Cc1c(Cc2ccc(F)c(OC(C)C(=O)O)c2)c2ccc(C(=O)NC(C)c3ccc(C(C)(C)C)cc3)cc2n1CC1CCC1 (stereo not drawn)	mouse, liver microsomes	–	> 60
CC(C)n1ncc2c(C(=O)NCC(C)(C)N)cc(C3CC3)nc21	mouse, liver microsomes	–	> 145

Excerpt of the above:
SMILES	test system	setting	half-life [min]
C#CCCCC(O)/C=C/C(=O)NC1(c2ccc(-c3nc4ccn5c(=O)[nH]nc5c4cc3-c3ccccc3)cc2)CCC1 (stereo not drawn)	CD-1 mouse, liver microsomes	1 µM, pH 7.4	28.7
Cc1ncsc1-c1ccc([C@@H]2CCCCCCNC(=O)C[C@@H]3N=C(c4ccc(cc4)OCCCCCC(=O)N[C@@H](C(C)(C)C)C(=O)N4C[C@H](O)C[C@H]4C(=O)N2)c2c(sc(C)c2C)-n2c(C)nnc23)cc1	mouse, liver microsomes	1 µM	11.2
Cc1c(Cc2cc(F)cc(OC(C)(C)C(=O)O)c2)c2ccc(C(=O)N[C@@H](C)c3cc(F)cc(C(C)(C)C)c3)cc2n1CC1CCC1	mouse, liver microsomes	–	12
N#Cc1c(-c2ccco2)cc(-c2cccs2)[nH]c1=O	mouse, liver microsomes	1 µM	9.6
Cc1c(Cc2cc(F)cc(OC(C)(C)C(=O)O)c2)c2ccc(C(=O)N[C@@H](C)c3ccc(C(C)(C)C)cc3)cc2n1CC1CCC1	mouse, liver microsomes	–	> 60
